Measured values gathered from unrelated publications.
Every numbered part comes from another study and shows a few of its results, in no order. Positions count from the first letter of the parent shown. pIC50: −log10 of the molar value.

Study 1
Target: tungstate, free oxyanion
Method: microfluidic competitive inhibition
Medium: in vitro, cell-free expressed
Concentration: not given
Setting: derived from inhibition constants, unchanged parent 2230 nM
Reading: lower = stronger binding
Starting sequence: PafA, mature enzyme, eGFP fusion (Elizabethkingia meningoseptica, UniProt Q9KJX5); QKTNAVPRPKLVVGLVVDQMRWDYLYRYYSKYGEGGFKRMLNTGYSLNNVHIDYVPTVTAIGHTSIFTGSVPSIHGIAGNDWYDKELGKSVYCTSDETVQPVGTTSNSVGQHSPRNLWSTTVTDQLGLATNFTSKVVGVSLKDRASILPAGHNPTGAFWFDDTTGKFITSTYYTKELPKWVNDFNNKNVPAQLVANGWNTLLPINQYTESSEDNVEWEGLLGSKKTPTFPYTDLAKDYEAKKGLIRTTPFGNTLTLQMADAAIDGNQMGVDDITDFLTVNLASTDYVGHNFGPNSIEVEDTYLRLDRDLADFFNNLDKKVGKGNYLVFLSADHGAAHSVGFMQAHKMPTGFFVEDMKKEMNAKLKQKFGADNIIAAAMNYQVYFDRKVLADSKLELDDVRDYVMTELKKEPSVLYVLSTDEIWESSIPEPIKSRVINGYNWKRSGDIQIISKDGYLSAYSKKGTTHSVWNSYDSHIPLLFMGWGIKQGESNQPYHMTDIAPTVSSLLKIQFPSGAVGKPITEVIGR
For `Y286V`, “oxyanion analog dissociation constant” read 4.9 µM.
`I66V`: “oxyanion analog dissociation constant” 1.71 µM.
For `K346V`, “oxyanion analog dissociation constant” read 2.11 µM.
Under “oxyanion analog dissociation constant”, `A78V` is recorded as 1.6 µM.
`L117G`: “oxyanion analog dissociation constant” 1.75 µM.
Under “oxyanion analog dissociation constant”, `H466V` is recorded as 12.9 µM.
For `K363V`, “oxyanion analog dissociation constant” read 2.61 µM.
For `E299G`, “oxyanion analog dissociation constant” read 2.13 µM.

Study 2
Target: UDP-N-acetylglucosamine--peptide N-acetylglucosaminyltransferase 110 kDa subunit (OGT, Homo sapiens, UniProt O15294)
Read-out: binding
Method: phage display NGS
Form: peptide
Concentration: concentration not given
Setting: panning round 2
Relative to: input library
Construct (O15294 1-1046): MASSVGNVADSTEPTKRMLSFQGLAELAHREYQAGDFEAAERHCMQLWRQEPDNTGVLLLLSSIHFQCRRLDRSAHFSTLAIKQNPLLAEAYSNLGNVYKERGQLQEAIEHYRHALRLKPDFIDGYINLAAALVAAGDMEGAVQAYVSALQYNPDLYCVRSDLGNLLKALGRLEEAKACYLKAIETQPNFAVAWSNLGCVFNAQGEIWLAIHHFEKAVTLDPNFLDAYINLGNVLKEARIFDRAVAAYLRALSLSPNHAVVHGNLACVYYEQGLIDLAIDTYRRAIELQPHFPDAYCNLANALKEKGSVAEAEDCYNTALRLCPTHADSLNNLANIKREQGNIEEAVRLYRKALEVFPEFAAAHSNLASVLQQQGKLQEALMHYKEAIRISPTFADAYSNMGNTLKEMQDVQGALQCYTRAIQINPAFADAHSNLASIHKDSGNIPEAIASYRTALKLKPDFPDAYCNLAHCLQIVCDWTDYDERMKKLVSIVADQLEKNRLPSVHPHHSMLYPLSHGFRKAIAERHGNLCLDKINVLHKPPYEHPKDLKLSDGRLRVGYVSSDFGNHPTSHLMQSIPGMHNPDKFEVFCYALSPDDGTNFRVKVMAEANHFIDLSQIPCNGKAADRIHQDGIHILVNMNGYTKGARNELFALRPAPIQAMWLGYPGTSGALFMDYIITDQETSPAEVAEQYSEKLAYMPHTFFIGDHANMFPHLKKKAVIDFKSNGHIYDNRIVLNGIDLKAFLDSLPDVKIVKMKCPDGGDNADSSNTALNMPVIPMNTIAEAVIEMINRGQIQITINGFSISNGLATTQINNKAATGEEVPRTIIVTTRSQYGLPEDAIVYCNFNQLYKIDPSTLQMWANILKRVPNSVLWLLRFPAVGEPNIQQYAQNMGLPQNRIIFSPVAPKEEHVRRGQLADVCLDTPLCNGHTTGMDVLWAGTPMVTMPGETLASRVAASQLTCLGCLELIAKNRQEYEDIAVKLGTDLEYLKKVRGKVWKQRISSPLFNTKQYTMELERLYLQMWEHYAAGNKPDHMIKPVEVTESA
`HTQPMEHNFHHYHF`: “enrichment fold change” 5.5.
`HAQHTVQGNHQHVAH`: “enrichment fold change” 20.8.
`THPTKYHRHDHIRMI`: “enrichment fold change” 5.41.
`WPHAQHITHQDDWHR` — result for “enrichment fold change”: 4.82.
Under “enrichment fold change”, `QQFSKLFPPKYTIDF` is recorded as 106.
`WPMDFPMFTHHHFH`: “enrichment fold change” 7.22.
`MFMPHYQIIMSATES`: “enrichment fold change” 91.3.
For `HPSHRWHYNETHTD`, “enrichment fold change” read 7.18.

Study 3
Target: CCND2, cyclin fold, Cln2 fusion (human)
Method: yeast growth competition, sequencing
Medium: yeast
Setting: weak parent motif
Relative to: not given
Reading: higher = stronger binding
Starting sequence: viral docking peptide; TSVRRALFTGGSD; partner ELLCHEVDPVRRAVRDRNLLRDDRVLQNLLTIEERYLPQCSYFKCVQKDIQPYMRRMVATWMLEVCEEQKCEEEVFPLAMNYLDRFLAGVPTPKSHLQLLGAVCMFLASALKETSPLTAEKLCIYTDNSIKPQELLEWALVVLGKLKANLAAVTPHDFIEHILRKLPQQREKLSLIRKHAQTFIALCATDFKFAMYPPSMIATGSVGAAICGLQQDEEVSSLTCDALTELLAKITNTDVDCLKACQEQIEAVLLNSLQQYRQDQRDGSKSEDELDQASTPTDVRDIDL
`D13A`: “normalised enrichment score” 0.309.
For `R5H`, “normalised enrichment score” read 0.408.
For `G11Y`, “normalised enrichment score” read -0.234.
`G10N` — result for “normalised enrichment score”: 0.442.
`F8W`: “normalised enrichment score” -0.172.
`R4I`: “normalised enrichment score” 0.0716.
For `G10Y`, “normalised enrichment score” read -0.118.
For `A6T`, “normalised enrichment score” read -0.123.

Other studies, line by line
For COC(=O)c1cc(N(C)C(=O)c2ccn3ncc(-c4ccc(C(=O)O)cc4)c3c2)ccc1Cl, the pIC50 was under 4.52 (human phosphodiesterase 3; enzyme activity).

For quick reference, copied from above (study 3):
`F8W`: “normalised enrichment score” -0.172.
`R4I`: “normalised enrichment score” 0.0716.
`D13A`: “normalised enrichment score” 0.309.
`G10N` — result for “normalised enrichment score”: 0.442.
